Experimental data from different studies.
Each line is one published result; not all experiments were run side by side.

COc1cccc(C2CC(c3ccccc3Cl)Nc3nc(N)nn32)c1 (stereo not shown) — concentration (male CD-1 mouse, plasma; intraperitoneal, 20 mg/kg, 1 h, single dose): 95000 nM
O=C(Nc1nccs1)C(c1cc(F)ccc1O)N1Cc2ccccc2C1=O (stereo not shown) — concentration (female FVB mouse, kidney; oral, 20 mg/kg, 4 h, single dose): 14.9 ng/mL
Brc1ccccc1-c1nnc(CSc2nnnn2-c2ccccc2)o1 — concentration (male C57BL/6 mouse, brain; intraperitoneal, 10 mg/kg, 24 h): 40 nM
Cc1c(C(=O)Nc2ccn(C)n2)ncn1Cc1cccc(C(F)(F)F)c1 — concentration (C57BL/6 mouse, brain; oral, 10 mg/kg, 7 h, single dose): 121 ng/mL
CC(C)NC(=O)N1CC=C(c2cc3c(Nc4ccc5scnc5c4)ncnc3s2)C1 — concentration (BALB/c mouse, plasma; oral, 10 mg/kg, 2 h): 47.7 ng/mL
COc1cnc2cccc(N3CCc4c(cc(Cn5ccnc5)cc4-c4cn(C)nc4C(F)(F)F)C3=O)c2c1 — concentration (female nude mouse, plasma; intraperitoneal, 100 mg/kg, 6 h, single dose, tumour-bearing): 9930 ng/mL
CC(C)NC(=O)N1CC=C(c2cc3c(Nc4ccc5scnc5c4)ncnc3s2)CC1 — concentration (BALB/c mouse, plasma; oral, 10 mg/kg, 2 h): 0.82 ng/mL
CCC(=O)N(C)c1ccc(Cl)c(Cl)c1 — concentration (mouse, plasma; subcutaneous, 40 mg/kg, 15 min): 4200 nM
CC(C)C(=O)NC1CC=C(c2cc3c(Nc4ccc5scnc5c4)ncnc3s2)CC1 (stereo not shown) — concentration (BALB/c mouse, plasma; oral, 10 mg/kg, 30 min): 959 ng/mL
CC(C)Cn1c(SCC(=O)N2CCc3ccccc3C2)nc2cc(Cl)ccc2c1=O — concentration (male C57BL/6 mouse, brain; intraperitoneal, 10 mg/kg, 4 h): 245 nM

Some of these lines once more:
CC(C)C(=O)NC1CC=C(c2cc3c(Nc4ccc5scnc5c4)ncnc3s2)CC1 (stereo not shown) — concentration (BALB/c mouse, plasma; oral, 10 mg/kg, 30 min): 959 ng/mL
